Measured values collected from several papers.
Each line is one published result; not all experiments were run side by side. Several values in a cell are separate wells, animals, samples, runs or records. Numbers after ± are the reported error. ≈ marks a conversion by molar mass, not a printed value.

For `N=C(N)c1ccc(OCc2cccc(COc3ccc(C(=N)N)cc3)c2)cc1`, “MIC in combination” read 50 µg/mL (Escherichia coli; BW25113; concentration not given, lowest-FICI combination, with: rifampicin).
For `CC(=O)NC[C@H]1CN(c2ccc(N3CCOCC3)c(F)c2)C(=O)O1`, the MIC was less than 2.96 µM (Bifidobacterium longum; HM-845).
The worm count of `CC(=Nc1ccc(N=Cc2cnccn2)cc1)N(C)C` is reported as 15.6 ± 2.3 (Necator americanus; infected hamsters, small intestine; oral, 50 mg/kg single, 1 h).
With `CN[C@H](CC(C)C)C(=O)N[C@H]1C(=O)N[C@@H](CC(N)=O)C(=O)N[C@H]2C(=O)N[C@H]3C(=O)N[C@H](C(=O)N[C@H](C(=O)O)c4cc(O)cc(O)c4-c4cc3ccc4O)[C@H](O)c3ccc(c(Cl)c3)Oc3cc2cc(c3O[C@@H]2O[C@H](CO)[C@@H](O)[C@H](O)[C@H]2O[C@H]2C[C@](C)(N)[C@H](O)[C@H](C)O2)Oc2ccc(cc2Cl)[C@H]1O` the ED50 was 21.1 mg/kg (Streptococcus pneumoniae; -4, penicillin-resistant, mouse systemic infection; intravenous; survival).
`CCOC(=O)c1c(C)nc(NCCCCNc2ccnc3cc(Cl)ccc23)nc1C` has an EC50 of greater than 4000 nM (human cytomegalovirus; viral replication; HEL, AD-169).
For `N=C(N)c1ccc(OCc2ccc(Br)cc2COc2ccc(C(=N)N)cc2)cc1`, “MIC of compound in combination” read 3.13 µg/mL (Escherichia coli; checkerboard; mcr-1 polymyxin-resistant; concentration not given, 20 h, with: rifampicin).
Under “worm burden reduction”, `CC(=Nc1ccc(N=Cc2nc3ccccc3[nH]2)cc1)N(C)C` is recorded as 58.8 ± 21.3% (Necator americanus; infected hamsters; oral, 50 mg/kg single; reference: untreated).
`CC(=O)NC[C@H]1CN(c2ccc(N3CCOCC3)c(F)c2)C(=O)O1` gave an MIC50 of 1 µg/mL (Streptococcus pneumoniae; penicillin-resistant, 10 isolates; pH 8.5).
`CC1(F)CN(C(=O)Cn2c(=O)c(C(=O)NCc3ccc(Cl)cc3)cc3nc(N4CCN(CC(=O)O)C4=O)cnc32)C1` gave an EC50 of 1280 nM (human cytomegalovirus; viral replication, GFP reporter; MRC-5, AD169-GFP).
`COC(=O)[C@@H](CCSC)NCc1cc2ccccc2nc1SC` has a growth of 95.7% (Pseudomonas aeruginosa; 4 µg/mL, without pentamidine; reference: control).
`CO[C@H]1/C=C/O[C@@]2(C)Oc3c(C)c(O)c4c(c3C2=O)C2=NC3(CCN(CC(C)C)CC3)NC2=C(NC(=O)/C(C)=C\C=C\[C@H](C)[C@H](O)[C@@H](C)[C@@H](O)[C@@H](C)[C@H](OC(C)=O)[C@@H]1C)C4=O` gave an IC50 of 2740 nM (Mycobacteroides abscessus; bacterial growth; subsp. abscessus Bamboo).
`CC(C)C[C@H](NC(=O)[C@H](Cc1ccccc1)NC(=O)c1cnccn1)B(O)O` has a protein level of 83.5% and 72.3% and 95.3% and 97% (Spodoptera frugiperda; degrader, targeted LC-MS, refers to: BRD3 (S. frugiperda); Sf9; concentration not given, compound alone).
`CNCCN1CCN(c2cnc3c(cc(C(=O)NCc4ccc(Cl)cc4)c(=O)n3CC(=O)N3CC(C)(F)C3)n2)C1=O` has an EC50 of 207 nM (human cytomegalovirus; viral replication, GFP reporter; MRC-5, AD169-GFP).
For `CC[C@H]1OC(=O)[C@H](C)[C@@H](O[C@H]2C[C@@](C)(OC)[C@@H](O)[C@H](C)O2)[C@H](C)[C@@H](O[C@@H]2O[C@H](C)C[C@H](N(C)C)[C@H]2O)[C@](C)(OC)C[C@@H](C)C(=O)[C@H](C)[C@@H](O)[C@]1(C)O`, the MIC50 was 0.2 µM (Mycobacterium avium; resazurin microtitre; 104; 4 days, 37 °C).
With `CC1(F)CN(C(=O)Cn2c(=O)c(C(=O)NCc3ccc(Cl)cc3)cc3nc(N4CCNC4=O)cnc32)C1` the EC50 was 218 nM (human cytomegalovirus; viral replication, GFP reporter; MRC-5, AD169-GFP).
With `C#CCCC(=O)SCCNC(=O)CCNC(=O)[C@H](O)C(C)(C)COP(=O)(O)OP(=O)(O)OC[C@H]1O[C@@H](n2cnc3c(N)ncnc32)[C@H](O)[C@@H]1OP(=O)(O)O` the viability was 86.5% (OCI-Ly1; 0.5 µM, 120 h).
With `COC(=O)[C@H](Cc1c[nH]c2ccccc12)NCc1cc2ccccc2nc1SC` the growth was 81.2% (Pseudomonas aeruginosa; 64 µg/mL, with: pentamidine 50 µM; reference: control).
With `COc1ccc(Cn2ccc3ccc(C(=O)NO)cc32)cc1` the viability was 85.6% (OCI-Ly1; 0.5 µM, 120 h).
With `Cc1ccc(CCC(=O)Nc2nnc(S(N)(=O)=O)s2)cc1` the MIC was greater than 784 µM (Bifidobacterium longum; HM-847).
For `COC(=O)[C@H](Cc1c[nH]c2ccccc12)NCc1cc2ccccc2nc1OC`, the growth was 57.5% (Pseudomonas aeruginosa; 4 µg/mL, with: pentamidine 100 µM; reference: control).
With `Cc1ccc(NC(=O)N2Cc3[nH]cnc3C[C@H]2c2nc(-c3ccc4c(c3)OCO4)no2)cc1` the mean lifespan was 21.2 days (Caenorhabditis elegans; N2; 3.125 µM).
For `COC(=O)[C@H](Cc1ccc(O)cc1)NCc1cc2ccccc2nc1SC`, the growth was 97.2% (Pseudomonas aeruginosa; 8 µg/mL, without pentamidine; reference: control).
`CC(=Nc1ccc(N=Cc2ccc3[nH]cnc3c2)cc1)N(C)C` — result for “worm burden reduction”: 100% (Necator americanus; infected hamsters; oral, 25 mg/kg single dose, 49 days post infection).
With `COC(=O)[C@@H](NCc1cc2ccccc2nc1OCc1ccccc1)C(C)C` the growth was 95.3% (Pseudomonas aeruginosa; 32 µg/mL, with: pentamidine 100 µM; reference: control).
`Cc1cc(Nc2ccc(S(F)(F)(F)(F)F)cc2)n2nc(C(C)(F)F)nc2n1` — result for “lag phase (Tlag)”: 12.6 h (Plasmodium falciparum; microscopy; human malaria patients; 250 mg, mean).
`CC(=Nc1ccc(N=Cc2ccc3[nH]ccc3c2)cc1)N(C)C` — result for “worm burden reduction”: 49 ± 18.2% (Necator americanus; infected hamsters; oral, 25 mg/kg single dose, 49 days post infection).
`Nc1nc(-c2ccccc2)nc2[nH]nc(Nc3ccc(C(F)(F)F)cc3)c12` gave a clinical score of 0.1 (coxsackievirus B3; 31-1-93, NMRI mice, CVB3 chronic myocarditis; oral, 100 mg/kg twice daily, day 2, dosed days 3 to 10, score scale 0 to 7; direction not given).
The cell protection of `CC(C)n1ncc2c(C(=O)NCC3(C)CNC3)cc(C3CC3)nc21` is reported as 101% and 98.9% and 100% (Enterovirus D68; cytopathic effect; RD, US/IL/14-18956; 1500 nM).
The bacterial load of `CN[C@H](CC(C)C)C(=O)N[C@H]1C(=O)N[C@@H](CC(N)=O)C(=O)N[C@H]2C(=O)N[C@H]3C(=O)N[C@H](C(=O)N[C@H](C(=O)O)c4cc(O)cc(O)c4-c4cc3ccc4O)[C@H](O)c3ccc(c(Cl)c3)Oc3cc2cc(c3O[C@@H]2O[C@H](CO)[C@@H](O)[C@H](O)[C@H]2O[C@H]2C[C@](C)(N)[C@H](O)[C@H](C)O2)Oc2ccc(cc2Cl)[C@H]1O` is reported as 4 log CFU and 6.21 log CFU and 5.76 log CFU and 4.92 log CFU and 3.52 log CFU (Staphylococcus epidermidis; 9397, female ICR mice, peritonitis, peritoneal fluid; dose not given).
`COc1c(N2C[C@@H]3CCCN[C@@H]3C2)c(F)cc2c(=O)c(C(=O)O)cn(C3CC3)c12` has an MBC of 8 µg/mL (≈ 19.9 µM) (Staphylococcus epidermidis; broth microdilution; methicillin-resistant isolates).
For `Cc1nc(NCCNc2ccnc3cc(Cl)ccc23)nc(-c2ccccc2[N+](=O)[O-])c1C(=O)OC(C)C`, the EC50 was greater than 20000 nM (human cytomegalovirus; viral replication; HEL, Davis).
With `Nc1nc(O)c2ncn(COC(CO)CO)c2n1` the EC90 was 2110 nM (Human betaherpesvirus 5; viral replication, virus yield reduction; HFF, AD169).
For `Cc1cc(OC(C)C)ccc1C(=O)C(C)(C)NC(=O)c1sccc1C`, the EC50 was 0.1 µg/mL (Botrytis cinerea; mycelial growth; PSA medium; 20 °C).
For `CC(=O)N1CCC(C(=O)N2CCN3C(=O)c4cc(-c5ccccc5)ccc4NC(=O)C3C2)CC1` (centres unmarked), the mean lifespan was 20.5 days (Caenorhabditis elegans; N2; 1.56 µM).
`CC(=Nc1ccc(N=Cc2ccc[nH]2)cc1)N(C)C` — result for “worm burden reduction”: 100% (Necator americanus; infected hamsters; oral, 50 mg/kg single; reference: untreated).
`CCOC(=O)c1c(C)nc(NCCNc2ccnc3cc(Cl)ccc23)nc1-c1ccccc1` has an EC50 of greater than 4000 nM (human cytomegalovirus; viral replication; HEL, Davis).
The parasite number of `CCc1nn(C)c2nc(-c3ccc(C(=O)O)cc3)nc(NCc3ccc(F)cc3)c12` is reported as 23.6% and 21.8% and 22.7% (Cryptosporidium parvum; HCT-8; 3 x EC90, 48 h; reference: DMSO control).
`CC(=Nc1ccc(N=Cc2c[nH]cn2)cc1)N(C)C`: “worm burden reduction” 90.5 ± 5.9% (Necator americanus; infected hamsters; oral, 25 mg/kg single dose, 49 days post infection).
`O=S(=O)(c1ccc(Cl)cc1)c1nc(-c2ccccc2)oc1S(=O)(=O)c1ccc(Cl)cc1` gave an EC50 of 140 nM (human cytomegalovirus; viral replication; HFF, AD169).
With `CC1(F)CN(C(=O)Cn2c(=O)c(C(=O)NCc3ccc(Cl)cc3)cc3nccnc32)C1` the EC50 was 3760 nM (human cytomegalovirus; viral replication, GFP reporter; MRC-5, AD169-GFP).
Under “worm burden reduction”, `CC(=Nc1ccc(N=Cc2ccc3c(c2)OCCO3)cc1)N(C)C` is recorded as 81.7 ± 14.5% (Necator americanus; infected hamsters; oral, 50 mg/kg single; reference: untreated).

Repeated from above:
`CC(=Nc1ccc(N=Cc2ccc3[nH]cnc3c2)cc1)N(C)C` — result for “worm burden reduction”: 100% (Necator americanus; infected hamsters; oral, 25 mg/kg single dose, 49 days post infection).
With `COC(=O)[C@@H](NCc1cc2ccccc2nc1OCc1ccccc1)C(C)C` the growth was 95.3% (Pseudomonas aeruginosa; 32 µg/mL, with: pentamidine 100 µM; reference: control).
`Cc1cc(Nc2ccc(S(F)(F)(F)(F)F)cc2)n2nc(C(C)(F)F)nc2n1` — result for “lag phase (Tlag)”: 12.6 h (Plasmodium falciparum; microscopy; human malaria patients; 250 mg, mean).
`CC(=Nc1ccc(N=Cc2ccc3[nH]ccc3c2)cc1)N(C)C` — result for “worm burden reduction”: 49 ± 18.2% (Necator americanus; infected hamsters; oral, 25 mg/kg single dose, 49 days post infection).
`Nc1nc(-c2ccccc2)nc2[nH]nc(Nc3ccc(C(F)(F)F)cc3)c12` gave a clinical score of 0.1 (coxsackievirus B3; 31-1-93, NMRI mice, CVB3 chronic myocarditis; oral, 100 mg/kg twice daily, day 2, dosed days 3 to 10, score scale 0 to 7; direction not given).
